Experimental data pooled from the literature.
Compare with care: the assays were run in different laboratories.
Cell line: HEK293

SMILES = CC1(C)C(NC(=O)C(=NOC2(C(=O)O)CC2)c2csc(N)n2)C(=O)N1OS(=O)(=O)O (centres unmarked); observed = cell growth or viability; CC50 = > 100 µM
SMILES = COc1ccc(CCNC2=CC3=[N+](C)CCc4c[nH]c(c43)C2=O)cc1; observed = cell growth or viability; technique = MTT; time = 72 h; CC50 = 0.2 µM
SMILES = CC[C@H]1OC(=O)[C@H](C)[C@@H](OC(=O)Cc2ccc([N+](=O)[O-])cc2)[C@H](C)[C@@H](O[C@@H]2O[C@H](C)C[C@H](N(C)C)[C@H]2O)[C@](C)(OC)C[C@@H](C)C(=O)[C@H](C)[C@@H](O)[C@]1(C)O; observed = cell growth or viability; CC50 = > 32 µg/mL
SMILES = Cc1ccc(S(=O)(=O)n2cc3c4c2C(=O)C(N)=CC4=NCC3)cc1; observed = cell growth or viability; technique = MTT; time = 72 h; CC50 = 0.4 µM
SMILES = CC[C@H]1OC(=O)[C@H](C)[C@@H](OC(=O)Cc2ccccc2Cl)[C@H](C)[C@@H](O[C@@H]2O[C@H](C)C[C@H](N(C)C)[C@H]2O)[C@](C)(OC)C[C@@H](C)C(=O)[C@H](C)[C@@H](O)[C@]1(C)O; observed = cell growth or viability; CC50 = > 32 µg/mL
SMILES = COC1=CC2=NCCc3c[nH]c(c32)C1=O; observed = cell growth or viability; technique = MTT; time = 72 h; CC50 = 20 µM
SMILES = Cc1ccc2c(c1)C1CC(C)(N2)c2c(C)nc3ccc(C)cc3c21 (centres unmarked); observed = cell growth or viability; technique = MTT; CC50 = 44.2 µM
SMILES = CC[C@H]1OC(=O)[C@H](C)[C@@H](OC(=O)Cc2ccccc2[N+](=O)[O-])[C@H](C)[C@@H](O[C@@H]2O[C@H](C)C[C@H](N(C)C)[C@H]2O)[C@](C)(OC)C[C@@H](C)C(=O)[C@H](C)[C@@H](O)[C@]1(C)O; observed = cell growth or viability; CC50 = > 32 µg/mL
SMILES = Cc1cc(O)c(=O)c(O)cc1C(=O)c1ccccc1; observed = cell growth or viability; technique = MTS; CC50 = > 83 µM
SMILES = O=C1C(NCCc2cc(Br)c(O)c(Br)c2)=CC2=NCCc3c[nH]c1c32; observed = cell growth or viability; technique = MTT; time = 72 h; CC50 = 10 µM
SMILES = O=C(N/N=C/c1ccc([N+](=O)[O-])s1)c1ccccc1I; observed = cell growth or viability; technique = resazurin; time = 48 h; CC50 = > 20 µM
SMILES = COc1cccc(-c2onc3nc(Nc4ccc(S(N)(=O)=O)cc4)sc23)c1O; CC50 = 15.3 µM
SMILES = CCOC(=O)c1ccc2c(c1)C1CC(C)(N2)c2c(C)nc3ccc(C(=O)OCC)cc3c21 (single isomer, unassigned); observed = cell growth or viability; technique = MTT; CC50 = > 400 µM
SMILES = CC[C@H]1OC(=O)[C@H](C)[C@@H](OC(=O)Cc2ccc(Cl)cc2)[C@H](C)[C@@H](O[C@@H]2O[C@H](C)C[C@H](N(C)C)[C@H]2O)[C@](C)(OC)C[C@@H](C)C(=O)[C@H](C)[C@@H](O)[C@]1(C)O; observed = cell growth or viability; CC50 = > 32 µg/mL
SMILES = COC(=O)c1c(CCl)cc(O)c(=O)c(O)c1C(=O)OC; observed = cell growth or viability; technique = MTS; CC50 = > 100 µM
SMILES = CC[C@H]1OC(=O)[C@H](C)[C@@H](OC(=O)Cc2ccc(N)cc2)[C@H](C)[C@@H](O[C@@H]2O[C@H](C)C[C@H](N(C)C)[C@H]2O)[C@](C)(OC)C[C@@H](C)C(=O)[C@H](C)[C@@H](O)[C@]1(C)O; observed = cell growth or viability; CC50 = > 32 µg/mL
SMILES = O=C1C(=O)c2[nH]cc3c2C(=C1I)NCC3; observed = cell growth or viability; technique = MTT; time = 72 h; CC50 = 50 µM
